Published values gathered from unrelated publications.
Compare with care: the assays were run in different laboratories. ± marks the error that the study gave.
Urease: Urease (Canavalia ensiformis, UniProt P07374)
HDAC1: Histone deacetylase 1 (HDAC1, Homo sapiens, UniProt Q13547)

Structure (SMILES)	target	assay	test system	conditions	IC50
CC[C@H](C)[C@H](NC(=O)[C@H](C)N)C(=O)N[C@@H](CCCNC(=N)N)C(=O)N[C@@H](CCC(N)=O)C(=O)N[C@H](C(=O)N[C@@H](Cc1c[nH]cn1)C(=O)N[C@@H](CC(N)=O)C(=O)N[C@H](C(=O)N[C@@H](Cc1ccccc1)C(=O)N[C@@H](Cc1ccccc1)C(=O)N[C@@H](Cc1ccccc1)C(=O)N[C@@H](Cc1ccccc1)C(=O)N[C@@H](Cc1ccccc1)C(=O)N[C@@H](CCCCN)C(=O)N[C@@H](CCCNC(=N)N)C(=O)N[C@@H](CCCNC(=N)N)C(=O)O)[C@@H](C)CC)[C@@H](C)O	histidine kinase ComD (Streptococcus pneumoniae serotype 2, UniProt A0A0H2ZM50)	reporter gene, antagonist	Streptococcus pneumoniae, D39 comX::lacZ	30 min, 37 °C, added: CSP1 50 nM	> 10 µM
CC(C)[C@H](NC(=O)c1ccc(CCc2nc3c(c(=O)[nH]2)CCC3)cc1)C(=O)NC1CNC1	MMP2 (Homo sapiens, UniProt P08253)	enzyme activity, inhibitor			> 5 µM
CCC(C)C1NC(=O)C(Cc2ccccc2)NC(=O)C(CCCCCC(=O)C2CO2)NC(=O)C2CCCCN2C1=O (centres unmarked)	Histone deacetylase (Plasmodium falciparum 3D7, UniProt Q7K6A1)	enzyme activity, inhibitor			0.0011 µM
CC(=O)[C@H]1CC[C@H]2[C@@H]3CC=C4C[C@@H](O)CC[C@]4(C)[C@H]3CC[C@]12C	CA2 (Homo sapiens, UniProt P00918)	enzyme activity, inhibitor, absorbance			89.4 µM
CC(=O)NCP(=O)(O)O	Urease	inhibitor		pH 7	> 1000 µM
Cc1cc(Nc2nc(C[C@@]3(C(=O)O)CCN(Cc4cccc(Cl)c4F)[C@H](C)C3)cc(C)c2F)n[nH]1	KCNH2 (Homo sapiens, UniProt Q12809)	ion current, inhibitor, patch clamp			26.7 µM
CCCC[C@H](NC(=O)[C@H](C)NC(=O)[C@H](C)NC(=O)[C@H](Cc1ccccc1)NC[C@H](CC(C)C)NC(=O)[C@@H](NC(=O)[C@@H](N)CCCNC(=N)N)C(C)C)C(=O)O	Gag-Pol polyprotein, protease (gag-pol, Human immunodeficiency virus 1, UniProt P12497)	enzyme activity, inhibitor, FRET	NL4-3 wild type		0.232 ± 0.03 µM
COc1ccc(/C=N/NC(=O)COc2ccc(Sc3ccc(OCC(=O)N/N=C/c4ccc(OC)c(OC)c4)cc3)cc2)cc1OC	Cholinesterase (BCHE, Equus caballus, UniProt P81908)	enzyme activity, inhibitor, Ellman			48.6 µM
OC[C@H]1NCC[C@@H](O)[C@H]1O	GLA (Homo sapiens, UniProt P06280)	enzyme activity, inhibitor, absorbance		pH 4.5	> 100 µM
COc1ccc(N=Nc2cccc(NC(=O)CCCCCCC(=O)NO)c2)cc1	HDAC1	enzyme activity, inhibitor		trans isomer	0.04 ± 0.01 µM
NC(=O)NCC(=O)NC1CCCCC1	Urease	enzyme activity, inhibitor, absorbance			12.9 µM
N#Cc1ccc(NC(=O)c2cccc(CC3CCCCC3)n2)c(Cc2ccccc2)c1	Capsid scaffolding protein, protease domain (Human herpesvirus 8 type P, UniProt Q2HRB6)			pH 8	no inhibition
F[P-](F)(F)(F)(F)F.OCP(CO)CO.OCP(CO)CO.OCP(CO)CO.OCP(CO)CO.[Cu+]	PSMB6/PSMB5/PSMB7 (Homo sapiens, UniProt P28072+P28074+Q99436)	chymotrypsin-like activity	26S proteasome from LoVo cells		23 µM
O=C(CS)NCCCCCNC(=O)c1ccccc1	HDAC10 (Homo sapiens, UniProt Q969S8)	enzyme activity, inhibitor			8.71 µM
O=C1c2ccc(O)c(O)c2C(=O)N1Cc1cccc(Cl)c1F	Gag-Pol polyprotein, integrase (gag-pol, Human immunodeficiency virus 1, UniProt P12497)	strand transfer, inhibitor, gel-based		recombinant wild-type integrase	0.9 ± 0.2 µM
Nc1nc2c(c(=O)[nH]1)[n+](Cc1cccc(OS(=O)(=O)F)c1)cn2[C@@H]1O[C@H](COP(=O)(O)O)[C@@H](O)[C@H]1O	NT5C3B (Homo sapiens, UniProt Q969T7)	enzyme activity, inhibitor, absorbance		pH 7.5	1.6 µM
CC(C)P(=[Se])(NP(=[Se])(C(C)C)C(C)C)C(C)C	Alpha-amylase (Bacillus subtilis, UniProt P00691)	enzyme activity, inhibitor, absorbance		pH 6.9	372 µM
CC(C)C[C@H](NC(=O)[C@H](CCC(=O)O)NC(=O)[C@H](Cc1ccccc1)NC(=O)[C@H](C)NC(=O)[C@H](CC(=O)O)NC(=O)[C@@H]1CCCN1C(=O)[C@H](Cc1ccc(O)cc1)NC(=O)[C@H](CCCCN)NC(=O)[C@H](Cc1c[nH]c2ccccc12)NC(=O)[C@H](CO)NC(=O)CNC(=O)CNC(=O)[C@H](CC(=O)O)NC(=O)[C@@H](N)CCC(=O)O)C(=O)N[C@@H](CO)C(=O)NCC(=O)O	Moesin, with CD44 (Homo sapiens, UniProt P26038)	CD44 peptide binding, TR-FRET		added: CD44 peptide	1.4 µM
CC[C@@H]1NC(=O)[C@H]([C@H](O)[C@H](C)Cc2nc3ccc(C(=O)c4ccccc4)cc3[nH]2)N(C)C(=O)[C@H](C(C)C)N(C)C(=O)[C@H](CC(C)C)N(C)C(=O)[C@H](CC(C)C)N(C)C(=O)[C@@H](C)NC(=O)[C@H](C)NC(=O)[C@H](CC(C)C)N(C)C(=O)[C@H](C(C)C)NC(=O)[C@H](CC(C)C)N(C)C(=O)CN(C)C1=O	PPIA/Calcineurin subunit B type 1/PPP3CA (Homo sapiens, UniProt P62937+P63098+Q08209)	enzyme activity, inhibitor			~10 µM

Structure (SMILES)	target	assay	test system	conditions	IC50
O=C(Nc1ccccc1)c1ccccc1O	HDAC1	enzyme activity, inhibitor, fluorescence			> 10 µM
N#Cc1ccc(NC(=O)c2cccnc2)cc1Cl	EGFR (Homo sapiens, UniProt P00533, T790M)	enzyme activity, inhibitor, ATP luminescence			< 50 µM
CSCC[C@H](N)C(=O)N[C@@H](CC(C)C)C(=O)N[C@@H](Cc1ccccc1)C(=O)N[C@@H](CO)C(=O)NCC(=O)O	ACE (Homo sapiens, UniProt P12821)	enzyme activity, inhibitor, HPLC			185 µM
Cc1cc(C(=O)COn2nnc3ccc(S(C)(=O)=O)cc32)c(C)n1C	Procathepsin L (CTSL, Homo sapiens, UniProt P07711)	enzyme activity, inhibitor, FRET			> 100 µM
Cc1cc(S(=O)(=O)Nc2ncccn2)c(F)cc1N(C)C1CCN([C@H](C)c2ccccc2)CC1	SCN1A (Homo sapiens, UniProt P35498)	ion current, inhibitor			294 µM
CC(=O)N[C@@H](CC(C)C)C(=O)N[C@@H](CCC(=O)O)C(=O)N[C@@H](CO)C(=O)N[C@@H](CC(=O)O)C(=O)CCl	Caspase-1 (CASP1, Homo sapiens, UniProt P29466)	enzyme activity, inhibitor, fluorescence			5.67 µM
CN(C)[C@H]1C[C@@]23CC[C@@]4(O2)C(=CC[C@]2(C)[C@@H](c5ccc6ccncc6c5)CC[C@H]24)C=C3[C@@H](O)[C@@H]1O	HASPIN (Homo sapiens, UniProt Q8TF76)	enzyme activity, inhibitor, radiometric			0.13 µM
CC(C)[C@H](NC(=O)c1ccc(CNc2nc3c(c(=O)[nH]2)CCC3)cc1)C(=O)NC1COC1	MMP8 (Homo sapiens, UniProt P22894)	enzyme activity, inhibitor			> 5 µM
CC(=O)Nc1ccc2ccn(-c3cc(NS(=O)(=O)c4ccccc4)n4ncc(C#N)c4n3)c2c1	CSNK2A2 (Homo sapiens, UniProt P19784)	target engagement in cells, BRET			1.26 µM
CC(C)C[C@H](NC(=O)[C@H](CC(C)C)NC(=O)[C@H](Cc1c[nH]cn1)NC(=O)CNC(=O)[C@@H](NC(=O)[C@H](C)NC(=O)[C@H](Cc1c[nH]c2ccccc12)NC(=O)[C@H](CCC(N)=O)NC(=O)[C@H](CC(N)=O)NC(=O)CNC(=O)[C@H](CC(C)C)NC(=O)[C@H](CCCNC(=N)N)NC(=O)[C@H](CCC(N)=O)NC(=O)[C@@H]1CCC(=O)N1)C(C)C)C(N)=O	NMBR (Homo sapiens, UniProt P28336)	NMBR activity, cell-based			0.045 to 0.295 µM
CCCN1CCc2cc(O)cc3c2[C@H]1Cc1ccc(O)c(O)c1-3	Carbamate kinase (Giardia intestinalis, UniProt A8BB85)	enzyme activity, ATP luminescence			8.19 µM
NC[C@@H](CC[C@H](N)C(=O)O)C[C@H]1O[C@@H](n2cnc3c(N)ncnc32)[C@H](O)[C@@H]1O	RNA demethylase ALKBH5 (Homo sapiens, UniProt Q6P6C2)	RNA demethylase activity, inhibitor			> 50 µM
c1cc2c(s1)CCOC21CCN(Cc2ccc3c(c2)OCCO3)CC1	Cytochrome P450 2D6 (CYP2D6, Homo sapiens, UniProt P10635)	inhibitor			0.5 µM
Cc1cc(OCc2ccncc2)nc2sc(C(=O)NCc3cc(F)ccc3F)c(N)c12	HRH3 (Homo sapiens, UniProt Q9Y5N1)	receptor activity, antagonist			~10 µM
CC(C)[C@H](NC(=O)[C@@H](N)Cc1ccc(O)cc1)C(=O)N[C@@H](CO)C(=O)NCC(=O)N[C@@H](CCCCN)C(=O)N[C@@H](C)C(=O)N[C@@H](CCCNC(=N)N)C(=O)NCC(=O)N[C@@H](Cc1c[nH]c2ccccc12)C(=O)N[C@@H](Cc1ccccc1)C(=O)O	APOBEC3G (Homo sapiens, UniProt Q9HC16)	deamination activity, inhibitor, PCR/StuI restriction		pH 7.4, 37 °C, added: ssDNA substrate 1 fmol/µL	> 100 µM
CCCCCc1cc(O)c2c(c1)OC(C)(C)C1CCC(C(=O)OC3OC(C(=O)O)C(O)C(O)C3O)=CC21 (centres unmarked)	Cytochrome P450 2B6 (CYP2B6, Homo sapiens, UniProt P20813)	inhibitor	HEK293 overexpressing CYP2B6, recombinant microsomes	pH 7.4, total concentration, added: bupropion	5.5 ± 1.6 µM
C[C@@H]1O[C@@H](Oc2c(-c3ccc(O)c(O)c3)oc3cc(O)cc(O)c3c2=O)[C@H](O)[C@H](O)[C@H]1O	CHRNA7 (Homo sapiens, UniProt P36544)	ion current, antagonist, two-electrode voltage clamp		oocytes	56.4 µM
O=C(NCc1nc(-c2ccc(Br)cc2)c[nH]1)Nc1ncc(Sc2ccccn2)s1	enoyl-ACP reductase FabK (Clostridioides difficile, UniProt A0A031WIF2)	enzyme activity, inhibitor, NADH fluorescence		added: crotonyl-CoA 325 µM	1.27 µM
CC1(C)OC2OC(C(CCO)NCCCNC(CCO)C3OC4OC(C)(C)OC4C3OCc3ccccc3)C(OCc3ccccc3)C2O1 (centres unmarked)	DNA ligase 1 (Homo sapiens, UniProt P18858)	enzyme activity, inhibitor, radiometric			320 µM
